Measurements collected from several papers.
A part holds a random share of what one study measured. Positions count from the first letter of the parent shown.

Set 1
Target: RNA binding protein fox-1 homolog 2, RRM domain, GST-SBP tag (RBFOX2, Homo sapiens, UniProt O43251-10, residues 100-194)
Method: RNA Bind-n-Seq
Molecule type: RNA
Matrix: in vitro
Concentration: 365 nM
Setting: natural RNA segment, single round, ends assumed
Baseline: no-protein control
Reading: higher = stronger binding
Target sequence (chain): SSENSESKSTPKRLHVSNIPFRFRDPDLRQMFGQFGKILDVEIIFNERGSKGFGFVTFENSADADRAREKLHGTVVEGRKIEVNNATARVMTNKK
Oligonucleotide | RBNS enrichment (R)
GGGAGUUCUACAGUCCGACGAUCAAGUGAUUGGUUUAUAUCAGAUUCAGAGGAGCCCAAUUAACUCCAGUGUAGGUAAUGUAAAACAGUAAGCUCAAAUUGCAGAAGCCAGUAUCCUACAGAAAUUUAAGUAGUGGAAUUCUCGGGUGCCAA | 0.524
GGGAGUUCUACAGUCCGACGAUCUGCUCAGACUCCAGCGCUCCGUUCUUCAAGGAGGUUGACUUGCCUCUCGGGCCCCGUAGGUACCAAGAGACUGUUUACCUCCCAGAAUGUUUGGGCUUGAAGUUACAUUAUGGAAUUCUCGGGUGCCAA | 0.167
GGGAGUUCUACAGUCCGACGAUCGGCCUCGGGCCUGACCCGUCCACACAGGGCCGUGUCAACAGCAGCGACUCAAGGGACGUGUGUACAUAUGUAAAUGAGAAAUAGAGACGUGUCAACAGAUGCAUUCAUUUUGGAAUUCUCGGGUGCCAA | 0.517
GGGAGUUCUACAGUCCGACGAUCUUCAUCAGUUUUGCAUCCUACUGAGAAAUGUUAGUGAUUUUGAUACUUAAAUCCUUAAAAGAUUGCUUCGUUUUUAAAAUAACGCAUGUCCAUUUUAGAAAAUUAGAAAAUGGAAUUCUCGGGUGCCAA | 32.8
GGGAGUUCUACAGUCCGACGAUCCUUACAGAUUUUUCCUUCCCCAGCUUGUGUCCACCCCUGUGCCAGGAGAGGUAGCACCAUCUCCUGGGACCAUCAAAGAGUGGGCUGGAGUGGGGACAGUGGACAGAGCAUGGAAUUCUCGGGUGCCAA | 0.292

Set 2
Target: CCNE1, cyclin fold, Cln2 fusion (human)
Method: yeast growth competition, sequencing
Matrix: yeast
Setting: weak parent motif
Baseline: not given
Reading: higher = stronger binding
Parent: SLBP docking peptide (human); ARYKRKLLINDFG
Variant | normalised enrichment score
G13M | 1.12
R5W | -0.599
R5P | 0.5
K6V | 1.29
G13W | 0.414
L7D | 0.123

Set 3
Target: Histone acetyltransferase KAT6A, winged helix 2, GST fusion (KAT6A, Homo sapiens, UniProt Q92794, residues 85-181)
Method: protein binding microarray
Molecule type: double-stranded DNA, one strand shown
Matrix: in vitro
Concentration: not given
Setting: 8-mer, flanks averaged, mean of 2 arrays, mostly near background
Baseline: not given
Reading: higher = stronger binding
Residues (chain): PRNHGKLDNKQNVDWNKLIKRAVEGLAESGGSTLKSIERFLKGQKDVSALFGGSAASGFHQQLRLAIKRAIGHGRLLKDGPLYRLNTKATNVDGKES
Oligonucleotide | E-score
AGACGTAG | -0.0971
ATCGGGCC | 0.109
CACTAACC | -0.0202
CGCAATGC | 0.00973
ACCTCCAA | 0.0209
AACTGCTA | -0.0742

Other studies, line by line
Molecule | target | assay | system | conditions | how to read | endpoint | value
PhoQ, residues 284 288 289 292 302 303 SSTLSG | PhoP, residues 12 14 15 18 19 LHTVM (Escherichia coli, UniProt P23836) | Sort-seq, refers to: YFP reporter | E. coli | PhoQ-PhoP variant library, added: 10 µM Mg2+ | baseline: high Mg2+ state, higher = stronger signaling | fold induction | 16.8
